Measurements collected from several papers.
Parts stem from different laboratories: compare values within a part only.

Study 1 — observed: binding; method: radioligand binding; concentration: 10 µM
Target: Sigma non-opioid intracellular receptor 1 (SIGMAR1, Homo sapiens, UniProt Q99720)
Chain of UniProt Q99720 (whole entry, looked up): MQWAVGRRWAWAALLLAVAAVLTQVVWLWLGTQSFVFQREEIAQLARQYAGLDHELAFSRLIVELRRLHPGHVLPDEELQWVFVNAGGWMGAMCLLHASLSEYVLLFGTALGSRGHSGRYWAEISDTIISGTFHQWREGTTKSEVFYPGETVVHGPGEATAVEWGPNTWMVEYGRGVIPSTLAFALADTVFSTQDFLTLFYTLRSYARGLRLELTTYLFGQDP
The inhibition of `COCCc1ccc(-c2c(C)nc3c(N4CCOCC4)ccnn23)cn1` is reported as -2.53%.
With `Cc1c[nH]c2nccc(Oc3c(F)cc(Nc4cc(Cl)nc(N)n4)cc3F)c12` the inhibition was 54.8%.
With `CC(=O)Nc1nc(CN2CCC[C@H](Cc3cc(C)nc(C)c3)C2)cs1` the inhibition was 101%.
`O=C(NC[C@@H]1[C@H]2CN(C(=O)OCc3cc(C(F)(F)F)cc(C(F)(F)F)c3)C[C@@H]12)c1ccc2[nH]nnc2c1` has an inhibition of 51.2%.
`C[C@@]1(Cc2ccc(C#N)cc2)C(=O)N(c2cc(Cl)cc(Cl)c2)c2ncc(C(=O)NC3(c4nc(C5CCC5)no4)CC3)n21` gave an inhibition of -16.2%.
With `CC(=O)c1c(NS(C)(=O)=O)c2cc(-c3ccc(Cl)cc3)c(-c3ccc(Cl)cc3Cl)nc2n(C)c1=O` the inhibition was -7.46%.
With `CNC(=O)c1ccc(Nc2ncc(C(F)(F)F)c(NCc3nccnc3N(C)S(C)(=O)=O)n2)cc1` the inhibition was 40.1%.
For `O=C(Nc1ccc(-n2nc(-c3cccnc3)cc2C(F)(F)F)cn1)c1ccc(-c2ccccc2)c(F)c1`, the inhibition was -17.2%.
With `CCCOc1ccc([C@H]2[C@H](C(=O)O)[C@@H](c3ccc4c(c3)OCO4)CN2CC(=O)Nc2c(CC)cccc2CC)cc1` the inhibition was 4.29%.
For `COCc1nc2cnc3cc(-c4c(C)noc4C)c(OC[C@H]4CCNC4)cc3c2n1[C@H](C)c1ccccc1`, the inhibition was 38.5%.
`CC1=C(C#N)[C@@H](c2ccc3[nH]nc(C)c3c2)C(C#N)=C(c2ccc(Cl)cc2)N1` gave an inhibition of 14.6%.
`O=C(Nc1cnc(Oc2ccc(F)cc2)nc1)N1CCc2ncccc2[C@@H]1c1ccc(F)cc1` has an inhibition of 64.4%.
`CC(=O)Nc1c(F)cc(C(=O)N[C@H]2CC[C@H](O)CC2)cc1O[C@@H](C)c1ccccc1` has an inhibition of 6.84%.
`O=C(Nc1cccnn1)N1CC(CC=Cc2cncc(Oc3ccc(C(F)(F)F)cn3)n2)C1` gave an inhibition of 32.2%.
`O=C(O)c1cc(-c2ccc(C3CCNCC3)cc2)c2ccc(-c3ccc(C(F)(F)F)cc3)cc2c1` gave an inhibition of 84.9%.
For `Nc1c(C(=O)NCc2ccc(C(=O)NCCCC3CCCCC3)cc2)cnn1-c1ccccc1`, the inhibition was 45.1%.
The inhibition of `CN1C(=O)[C@@H](N2CCc3cn(Cc4ccccc4)nc3C2=O)COc2ccccc21` is reported as -1.9%.
`CN1CCN(C(=O)C(C)(C)c2ccc(C(=O)Nc3cn4cc(-c5ccncc5)ccc4n3)cc2)CC1` gave an inhibition of 16.9%.
The inhibition of `CNC(=O)Nc1ccc2c(c1)[C@]1(CC2)OC(=O)N(CC(=O)N(Cc2ccc(F)cc2)[C@@H](C)C(F)(F)F)C1=O` is reported as 17.7%.

Study 2 — observed: enzyme activity; mode: inhibitor; concentration: 0.5 µM; reference: control
Target: Non-receptor tyrosine-protein kinase TYK2 (TYK2, Homo sapiens, UniProt P29597)
Chain of UniProt P29597 (whole entry, looked up): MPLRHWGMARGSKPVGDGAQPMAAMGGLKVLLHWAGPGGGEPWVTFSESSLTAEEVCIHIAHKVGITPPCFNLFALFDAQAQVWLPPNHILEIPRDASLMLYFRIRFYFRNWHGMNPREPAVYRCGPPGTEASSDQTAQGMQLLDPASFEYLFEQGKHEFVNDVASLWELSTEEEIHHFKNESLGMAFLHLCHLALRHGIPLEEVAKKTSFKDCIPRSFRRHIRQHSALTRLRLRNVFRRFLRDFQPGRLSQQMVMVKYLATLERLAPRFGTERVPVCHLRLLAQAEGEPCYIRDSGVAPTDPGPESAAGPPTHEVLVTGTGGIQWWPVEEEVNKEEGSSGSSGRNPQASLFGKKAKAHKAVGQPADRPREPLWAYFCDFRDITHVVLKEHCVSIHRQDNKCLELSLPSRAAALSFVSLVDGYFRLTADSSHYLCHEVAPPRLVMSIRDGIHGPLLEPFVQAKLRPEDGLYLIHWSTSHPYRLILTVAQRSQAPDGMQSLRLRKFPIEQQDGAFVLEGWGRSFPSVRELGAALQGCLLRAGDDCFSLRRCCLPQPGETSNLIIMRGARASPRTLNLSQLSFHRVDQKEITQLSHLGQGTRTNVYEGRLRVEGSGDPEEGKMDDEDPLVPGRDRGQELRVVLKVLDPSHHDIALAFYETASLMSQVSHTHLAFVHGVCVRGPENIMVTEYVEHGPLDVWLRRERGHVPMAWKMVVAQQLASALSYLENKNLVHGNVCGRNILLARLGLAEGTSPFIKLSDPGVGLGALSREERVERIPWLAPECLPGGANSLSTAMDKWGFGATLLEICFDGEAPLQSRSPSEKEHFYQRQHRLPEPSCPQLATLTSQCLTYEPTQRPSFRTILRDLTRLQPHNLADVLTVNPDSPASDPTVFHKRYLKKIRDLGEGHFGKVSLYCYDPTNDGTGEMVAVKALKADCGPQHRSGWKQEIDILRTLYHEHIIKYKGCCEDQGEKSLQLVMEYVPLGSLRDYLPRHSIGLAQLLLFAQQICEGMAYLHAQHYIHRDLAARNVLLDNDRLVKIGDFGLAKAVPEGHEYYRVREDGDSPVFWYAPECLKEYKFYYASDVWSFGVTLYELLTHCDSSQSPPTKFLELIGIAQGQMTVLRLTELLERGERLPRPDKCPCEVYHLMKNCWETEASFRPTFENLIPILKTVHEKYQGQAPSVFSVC
The remaining activity of `Cc1cc2ncc(-c3ccccc3)nc2cc1C` is reported as 97.6%.
With `CN(C)C[C@H]1CCn2c(c(C3=C(c4cn(C)c5ccccc45)C(=O)NC3=O)c3ccccc32)C1` the remaining activity was 104%.
`N#Cc1c(NC(=O)c2cccc3ccccc23)sc2c1CCCC2` gave a remaining activity of 100%.
For `Ic1cccc(CSc2nnc(-c3ccncc3)o2)c1`, the remaining activity was 105%.
With `COc1cc2ncnc(Nc3cccc(Cl)c3)c2cc1OC` the remaining activity was 98.1%.
With `Cc1cn(-c2cc(NC(=O)c3ccc(C)c(Nc4nccc(-c5cccnc5)n4)c3)cc(C(F)(F)F)c2)cn1` the remaining activity was 99.3%.
With `O=C(Nc1cccc(Nc2nccc(Nc3cccc(C(F)(F)F)c3)n2)c1)C1CC1` the remaining activity was 42.5%.
With `Nc1cccc(-c2cc3c(Oc4cccc(O)c4)ncnc3[nH]2)c1` the remaining activity was 36.9%.
`CCN(CC)CCNC(=O)c1c(C)[nH]c(/C=C2\C(=O)Nc3ccc(Cl)cc32)c1C` has a remaining activity of 30.8%.
The remaining activity of `CN([C@@H](Cc1ccc(OS(=O)(=O)c2cccc3cnccc23)cc1)C(=O)N1CCN(c2ccccc2)CC1)S(=O)(=O)c1cccc2cnccc12` is reported as 110%.
For `N#C/C(=C\c1ccc(O)c(O)c1)C(=O)NCc1ccccc1`, the remaining activity was 97.1%.
The remaining activity of `COc1cc2ncnc(Nc3ccc(O)c(Br)c3)c2cc1OC` is reported as 96.5%.
`Cc1nc2cc3nc(-c4cccs4)cnc3cc2n1C` gave a remaining activity of 102%.
With `O=C1C(Cl)=C(N2C(=O)CCC2=O)C(=O)c2ccccc21` the remaining activity was 102%.
`CCOc1nc(NC(=O)Cc2cc(OC)ccc2OC)cc(N)c1C#N` has a remaining activity of 101%.
The remaining activity of `Cn1nc2c3c(cccc31)C(=O)c1ccccc1-2` is reported as 89.4%.
For `c1ccc(-c2[nH]ncc2-c2ccnc3ccccc23)nc1`, the remaining activity was 101%.
The remaining activity of `COc1cc2c(cc1OC)-c1[nH]nc(Nc3cccc(F)c3)c1C2` is reported as 81.3%.
With `c1ccc(-c2cnc(Nc3ccc(OCCN4CCCC4)cc3)s2)cc1` the remaining activity was 106%.
`O=c1cc(-c2cccc3c2Sc2ccccc2S3)oc(N2CCOCC2)c1` has a remaining activity of 95.8%.
The remaining activity of `O=C(NC(NC(=S)Nc1ccc(F)c([N+](=O)[O-])c1)C(Cl)(Cl)Cl)C(c1ccccc1)c1ccccc1` (centres unmarked) is reported as 94%.
The remaining activity of `O=C1c2ccccc2-c2n[nH]c3cccc1c23` is reported as 66.4%.
With `CCN(CC)C(=O)c1ccc(Nc2nc(OCC3CCCCC3)c3[nH]cnc3n2)cc1` the remaining activity was 4.96%.

Study 3 — observed: enzyme activity; mode: inhibitor; concentration: 10 µM
Target: Calcium/calmodulin-dependent protein kinase type II subunit alpha (CAMK2A, Homo sapiens, UniProt Q9UQM7)
Chain of UniProt Q9UQM7 (whole entry, looked up): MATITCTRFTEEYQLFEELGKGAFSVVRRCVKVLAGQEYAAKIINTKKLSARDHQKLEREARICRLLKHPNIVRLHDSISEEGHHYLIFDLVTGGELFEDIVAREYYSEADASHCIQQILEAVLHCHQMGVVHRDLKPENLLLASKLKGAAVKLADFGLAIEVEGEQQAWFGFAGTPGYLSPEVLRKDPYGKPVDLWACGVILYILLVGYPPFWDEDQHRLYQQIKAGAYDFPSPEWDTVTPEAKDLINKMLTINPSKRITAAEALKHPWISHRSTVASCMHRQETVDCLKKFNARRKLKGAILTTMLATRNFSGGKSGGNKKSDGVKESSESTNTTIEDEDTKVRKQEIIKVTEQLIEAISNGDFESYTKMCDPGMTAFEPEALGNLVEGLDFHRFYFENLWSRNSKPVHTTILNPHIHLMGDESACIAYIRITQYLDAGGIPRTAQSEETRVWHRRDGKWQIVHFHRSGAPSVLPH
`Cc1cc(-n2c(=O)[nH]c(=O)n(C)c2=O)ccc1Oc1ccc(SC(F)(F)F)cc1` gave an inhibition of -9%.
With `CCCCCCCCCCCCCCCc1cc(O)cc(O)c1` the inhibition was -3%.
With `CN(C)CCOC1=Cc2ccccc2Sc2ccc(Cl)cc21` the inhibition was -7%.
`Cc1nc2c([nH]1)-c1ccccc1N(C(=O)c1ccc(NC(=O)c3ccccc3-c3ccccc3)cc1)CC2` gave an inhibition of -7%.
The inhibition of `COc1cc2cc(c1Cl)N(C)C(=O)C[C@H](OC(=O)[C@H](C)N(C)C(C)=O)[C@]1(C)O[C@H]1[C@H](C)[C@@H]1C[C@@](O)(NC(=O)O1)[C@H](OC)/C=C/C=C(\C)C2` is reported as -10%.
With `O=c1ccn([C@H]2C[C@H](O)[C@@H](COP(=O)(O)O)O2)c(=O)[nH]1` the inhibition was 6%.
`O=C(O)CCc1ccc(O)cc1O` gave an inhibition of 28%.
`CN(C)CCc1c[nH]c2ccc(Cn3cncn3)cc12` has an inhibition of 2%.

Study 4 — dose: dose not given; reference: vehicle
Compound: CC(=O)N[C@@H](Cc1c[nH]c2ccccc12)C(=O)N[C@@H](CCC(=O)C=[N+]=[N-])C(=O)OC(C)C
It gave 0.353 for “log2 fold change” (refers to: phenylpyruvate; mouse, EL4 tumour-bearing, EL4 tumour).
For refers to: 1,5-anhydroglucitol; mouse, EL4 tumour, tumour: “log2 fold change” read 0.233.
metabolomics, refers to: cytidine 2',3'-cyclic monophosphate; mouse, EL4 tumour — “log2 fold change”: 2.04.
refers to: mannose 6-phosphate; mouse, EL4 tumour-bearing, EL4 tumour — “log2 fold change”: 0.775.
refers to: 4-hydroxyphenylpyruvate; mouse, EL4 tumour-bearing, EL4 tumour — “log2 fold change”: 1.37.
The “log2 fold change” was -1.6 (refers to: dihydroorotate; mouse, EL4 tumour-bearing, EL4 tumour).
refers to: equol sulfate; mouse, EL4 tumour-bearing, EL4 tumour — “log2 fold change”: 0.579.
The “log2 fold change” was 0.182 (refers to: 2'-deoxyuridine; mouse, EL4 tumour-bearing, EL4 tumour).
For refers to: N1-methylinosine; mouse, EL4 tumour-bearing, EL4 tumour: “log2 fold change” read -0.997.
The “log2 fold change” was 0.445 (refers to: xanthosine; mouse, EL4 tumour-bearing, EL4 tumour).
It gave -0.423 for “log2 fold change” (refers to: citrate; mouse, EL4 tumour-bearing, EL4 tumour).
For refers to: dihydrobiopterin; mouse, EL4 tumour-bearing, EL4 tumour: “log2 fold change” read 0.29.
It gave -0.289 for “log2 fold change” (refers to: NAD+; mouse, EL4 tumour-bearing, EL4 tumour).
It gave 0.0342 for “log2 fold change” (refers to: N-acetylvaline; mouse, EL4 tumour-bearing, EL4 tumour).
It gave 0.085 for “log2 fold change” (refers to: alpha-tocotrienol; mouse, EL4 tumour-bearing, EL4 tumour).

Some of these lines once more (study 1):
With `CC(=O)c1c(NS(C)(=O)=O)c2cc(-c3ccc(Cl)cc3)c(-c3ccc(Cl)cc3Cl)nc2n(C)c1=O` the inhibition was -7.46%.
With `CNC(=O)c1ccc(Nc2ncc(C(F)(F)F)c(NCc3nccnc3N(C)S(C)(=O)=O)n2)cc1` the inhibition was 40.1%.
For `O=C(Nc1ccc(-n2nc(-c3cccnc3)cc2C(F)(F)F)cn1)c1ccc(-c2ccccc2)c(F)c1`, the inhibition was -17.2%.
With `CCCOc1ccc([C@H]2[C@H](C(=O)O)[C@@H](c3ccc4c(c3)OCO4)CN2CC(=O)Nc2c(CC)cccc2CC)cc1` the inhibition was 4.29%.
For `COCc1nc2cnc3cc(-c4c(C)noc4C)c(OC[C@H]4CCNC4)cc3c2n1[C@H](C)c1ccccc1`, the inhibition was 38.5%.
`CC1=C(C#N)[C@@H](c2ccc3[nH]nc(C)c3c2)C(C#N)=C(c2ccc(Cl)cc2)N1` gave an inhibition of 14.6%.
`O=C(Nc1cnc(Oc2ccc(F)cc2)nc1)N1CCc2ncccc2[C@@H]1c1ccc(F)cc1` has an inhibition of 64.4%.
`CC(=O)Nc1c(F)cc(C(=O)N[C@H]2CC[C@H](O)CC2)cc1O[C@@H](C)c1ccccc1` has an inhibition of 6.84%.
`O=C(Nc1cccnn1)N1CC(CC=Cc2cncc(Oc3ccc(C(F)(F)F)cn3)n2)C1` gave an inhibition of 32.2%.
`O=C(O)c1cc(-c2ccc(C3CCNCC3)cc2)c2ccc(-c3ccc(C(F)(F)F)cc3)cc2c1` gave an inhibition of 84.9%.
For `Nc1c(C(=O)NCc2ccc(C(=O)NCCCC3CCCCC3)cc2)cnn1-c1ccccc1`, the inhibition was 45.1%.
